Assay results from different studies.
Compare with care: the assays were run in different laboratories. Several values in a cell are separate wells, animals, samples, runs or records. ± gives the spread as reported.
Sequence of UniProt P10721 (whole entry, unmodified, looked up): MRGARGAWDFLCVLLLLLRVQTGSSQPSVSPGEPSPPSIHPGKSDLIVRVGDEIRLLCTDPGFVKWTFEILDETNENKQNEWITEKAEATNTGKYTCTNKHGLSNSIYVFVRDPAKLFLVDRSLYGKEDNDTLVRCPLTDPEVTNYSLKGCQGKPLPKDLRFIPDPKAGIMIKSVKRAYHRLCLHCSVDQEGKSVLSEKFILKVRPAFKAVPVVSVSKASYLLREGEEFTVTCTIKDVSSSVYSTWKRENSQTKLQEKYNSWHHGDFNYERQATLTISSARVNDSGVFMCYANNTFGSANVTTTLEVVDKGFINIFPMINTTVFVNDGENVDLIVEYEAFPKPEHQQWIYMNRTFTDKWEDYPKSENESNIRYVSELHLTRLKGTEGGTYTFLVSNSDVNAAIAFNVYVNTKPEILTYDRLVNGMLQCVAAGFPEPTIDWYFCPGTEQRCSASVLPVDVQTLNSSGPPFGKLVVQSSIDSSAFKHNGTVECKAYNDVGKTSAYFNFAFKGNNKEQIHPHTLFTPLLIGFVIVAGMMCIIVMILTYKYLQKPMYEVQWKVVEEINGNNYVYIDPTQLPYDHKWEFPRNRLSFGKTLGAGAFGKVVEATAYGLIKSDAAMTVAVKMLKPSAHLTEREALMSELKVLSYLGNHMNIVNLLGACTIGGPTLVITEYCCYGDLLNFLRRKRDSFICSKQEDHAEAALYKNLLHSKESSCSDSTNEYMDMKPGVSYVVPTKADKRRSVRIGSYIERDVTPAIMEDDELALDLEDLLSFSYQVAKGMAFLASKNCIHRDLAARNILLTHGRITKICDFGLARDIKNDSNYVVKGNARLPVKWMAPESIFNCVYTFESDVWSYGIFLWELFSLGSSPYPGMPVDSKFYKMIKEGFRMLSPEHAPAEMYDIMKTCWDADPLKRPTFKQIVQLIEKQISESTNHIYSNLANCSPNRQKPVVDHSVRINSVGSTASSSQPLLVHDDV
Sequence of UniProt P49760 (whole entry, looked up): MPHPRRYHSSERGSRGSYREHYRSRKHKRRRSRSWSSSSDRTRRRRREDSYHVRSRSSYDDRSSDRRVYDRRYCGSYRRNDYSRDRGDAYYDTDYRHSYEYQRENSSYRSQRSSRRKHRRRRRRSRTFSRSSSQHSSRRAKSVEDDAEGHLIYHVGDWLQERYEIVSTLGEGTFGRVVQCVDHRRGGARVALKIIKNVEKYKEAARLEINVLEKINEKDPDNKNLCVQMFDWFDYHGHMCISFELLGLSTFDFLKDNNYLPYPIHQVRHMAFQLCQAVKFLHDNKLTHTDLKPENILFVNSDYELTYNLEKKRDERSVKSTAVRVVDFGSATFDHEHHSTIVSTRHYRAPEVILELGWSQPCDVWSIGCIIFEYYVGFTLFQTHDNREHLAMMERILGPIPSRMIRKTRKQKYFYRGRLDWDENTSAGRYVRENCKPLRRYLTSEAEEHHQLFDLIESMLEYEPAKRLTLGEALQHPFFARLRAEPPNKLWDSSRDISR

O=C1NC2(CC2)COc2ncc(F)cc2[C@H]2COCCN2c2ccn3ncc1c3n2 — organ-to-brain weight ratio (Sprague-Dawley rat, female, heart; oral, 10 mg/kg/day, 4 weeks dosing, end of recovery): 57.2 ± 4.66%
CC[C@H](C)[C@H](NC(=O)[C@H](CCCCN)NC(=O)[C@H](CC(N)=O)NC(=O)CNC(=O)[C@@H](NC(=O)[C@H](C)NC(=O)[C@H](CCCNC(=N)N)NC(=O)[C@H](CC(C)C)NC(=O)[C@H](CCCCN)NC(=O)[C@H](CCCCN)NC(=O)[C@H](CCCCN)NC(=O)[C@H](C)NC(=O)[C@H](CCCCN)NC(=O)[C@@H]1CSSC[C@H](NC(=O)[C@H](CCCNC(=N)N)NC(=O)CN)C(=O)N[C@@H](CC(N)=O)C(=O)N[C@@H](CC(C)C)C(=O)N[C@@H](CC(C)C)C(=O)N1)C(C)C)C(=O)N[C@@H](CCCCN)C(=O)N[C@@H](CCC(=O)O)C(=O)N[C@H](C(=O)N[C@@H](CCCCN)C(=O)N[C@@H](CC(N)=O)C(=O)N[C@H](C(=O)N[C@H](C(=O)N[C@@H](Cc1ccccc1)C(=O)N[C@@H](CC(N)=O)C(=O)N[C@@H](CCCNC(=N)N)C(=O)O)C(C)C)C(C)C)[C@@H](C)CC — hemolysis (human erythrocytes; 10 µM, 30 min, 37 °C; reference: Triton X-100): 1.23 ± 4.95%
CC(C)[C@H]1NC(=O)C[C@H]2/C=C/CCSSC[C@@H](NC1=O)C(=O)N[C@H](Cc1cccc3ccccc13)C(=O)NCC(=O)O2 — inhibition (Mast/stem cell growth factor receptor Kit (KIT, Homo sapiens, UniProt P10721, D816Y); enzyme activity, inhibitor; 10 µM): 2.4%
CC[C@H](C)[C@H](N)C(=O)NCC(=O)NCC(=O)N[C@@H](CCCCN)C(=O)N[C@@H](CC(N)=O)C(=O)NCC(=O)NCC(=O)N[C@@H](Cc1c[nH]c2ccccc12)C(=O)N[C@@H](Cc1c[nH]c2ccccc12)C(=O)NCC(=O)N[C@@H](CCCCN)C(=O)N[C@H](C(=O)N[C@@H](CCCNC(=N)N)C(=O)N[C@@H](Cc1c[nH]c2ccccc12)C(=O)NCC(=O)N[C@@H](CC(C)C)C(=O)N[C@@H](CC(C)C)C(=O)N[C@@H](CO)C(=O)N[C@@H](CC(C)C)C(=O)N[C@H](C(=O)N[C@@H](CCCCN)C(=O)NCC(=O)N[C@H](C(=O)N[C@@H](C)C(=O)NCC(=O)N[C@@H](CCC(N)=O)C(=O)N[C@@H](CCCNC(=N)N)C(=O)N[C@@H](CC(C)C)C(=O)N[C@@H](CC(C)C)C(=O)O)[C@@H](C)CC)[C@@H](C)CC)C(C)C — IC50 (HUVEC; cytotoxicity, MTT; 24 h, 37 °C): 8.33 µM
CC[C@H](C)[C@H](NC(=O)[C@H](C)NC(=O)[C@H](CCCCN)NC(=O)[C@H](CCCCN)NC(=O)[C@@H](N)CCCNC(=N)N)C(=O)N[C@@H](CCCCN)C(=O)N[C@@H](CC(C)C)C(=O)N[C@H](C(=O)N[C@@H](CCCCN)C(=O)N[C@@H](CCCCN)C(=O)N[C@@H](CC(C)C)C(=O)N[C@H](C(=O)N[C@@H](CCCCN)C(=O)N[C@@H](CCCCN)C(=O)N[C@@H](CC(C)C)C(=O)N[C@@H](CCCCN)C(=O)N[C@@H](CCCCN)C(=O)N[C@@H](C)C(=O)N[C@@H](CC(C)C)C(=O)N[C@@H](CCCCN)C(=O)O)C(C)C)C(C)C — cell growth (HaCaT; MTT; 32 mg/L; reference: untreated): 73.4% and 90% and 81.9% and 84.9% and 89.5%
CNC(=O)C[C@H](Cc1ccncc1)NC(=O)[C@@H](Cc1cccc(Br)c1)NC(=O)[C@@H](N)Cc1cccc(F)c1 — viability (Huh-7-ACE2; CellTiter-Glo; 0.0244 µM, 48 h, unit not given; reference: DMSO): 0.969 and 0.906 and 0.923
CC(C)(C)C(=O)OCOP(=O)(OCOC(=O)C(C)(C)C)C1CCCN(O)C1=O (stereo not shown) — GI50 (SNB-75): 1.43 µM
CN(C)[C@H]1C[C@@]23CC[C@@]4(O2)C(=CC[C@]2(C)[C@@H](c5ccc6ccncc6c5)CC[C@H]24)C=C3[C@@H](O)[C@@H]1O — inhibition (Dual specificity protein kinase CLK2 (CLK2, Homo sapiens, UniProt P49760); ATP probe labelling, inhibitor, KiNativ profiling; 1 µM): 10.3%
CN(C)CCCCNC(=O)C[C@H](Cc1ccc(F)cc1)NC(=O)[C@@H](Cc1ccc(Cl)cc1Cl)NC(=O)[C@H](N)Cc1ccccc1C#N — cytosolic concentration (HEK-293T; LC-MS, digitonin-released cytosol; 10 µM, 4 h): 1.2 µM and 1.5 µM and 1.4 µM
COc1cc(/C=C/C(=O)O)ccc1O — CC50 (HaCaT; cell growth or viability, MTT; 24 h): > 250 µM
CC(C)C(=O)OC[C@H]1O[C@@](C#N)(n2ccc(N)nc2=O)[C@H](O)[C@@H]1O — CC50 (human PBM cells): 52.3 ± 30.6 µM
CCN(CCCCOc1ccc(CCC(=O)N2CCC(Cc3ccccc3)CC2)cc1OC)Cc1ccccc1 — Papp(A-B) (Caco-2 monolayer; 10 µM, 120 min): 7.99 ± 0.68 ×10⁻⁶ cm/s
CC[C@H](C)[C@H](NC(=O)[C@@H](NC(=O)[C@H](CCCCN)NC(=O)[C@H](CCCCN)NC(=O)[C@@H](NC(=O)[C@H](Cc1c[nH]c2ccccc12)NC(=O)[C@H](CCCCN)NC(=O)[C@@H](NC(=O)[C@H](CC(C)C)NC(=O)[C@H](CCCCN)NC(=O)[C@H](CCCCN)NC(=O)[C@@H](N)C(C)C)[C@@H](C)CC)[C@@H](C)CC)C(C)C)C(N)=O — minimum haemolytic concentration (sheep red blood cells; 10% haemolysis; 1 h, 37 °C): 182 µM

Repeated from above:
CN(C)CCCCNC(=O)C[C@H](Cc1ccc(F)cc1)NC(=O)[C@@H](Cc1ccc(Cl)cc1Cl)NC(=O)[C@H](N)Cc1ccccc1C#N — cytosolic concentration (HEK-293T; LC-MS, digitonin-released cytosol; 10 µM, 4 h): 1.2 µM and 1.5 µM and 1.4 µM
